Experimental data of several laboratories.
Each line is one published result; not all experiments were run side by side. ± gives the spread as reported.
uncharacterized protein: uncharacterized protein (Canis lupus familiaris, UniProt A0A8I3P1R6)
Peroxisome proliferator-activated receptor alpha: Peroxisome proliferator-activated receptor alpha (Rattus norvegicus, UniProt P37230)

Structure (SMILES) | tested on | assay | test system | setting | scale | measurement | value
CCc1nccnc1CC | uncharacterized protein | cAMP level, agonist, cAMP luminescence | HEK293 cells |  |  | EC50 | 659 ± 24.9 µM
CC[C@H]1[C@@H](O)[C@@H]2[C@H](CC[C@]3(C)[C@@H]([C@H](C)CCNC(=O)NS(=O)(=O)c4ccc(C(C)(C)C)cc4)CC[C@@H]23)[C@@]2(C)CC[C@@H](O)C[C@@H]12 | Cytochrome P450 3A4 (CYP3A4, Homo sapiens, UniProt P08684) |  | human, plasma | 10 mg, day 1, compound alone |  | Cmax mean | 33.1 ng/mL
NS(=O)(=O)c1ccc(CNc2ccnc(Nc3cccc(NC(=O)N4CCCC4)c3)n2)cc1 | 16-kinase panel | radiometric |  | 1 µM, ATP at Km | below 10% of control | number of kinases inhibited | 0
Cc1cnccn1 | uncharacterized protein | cAMP level, agonist, cAMP luminescence | HEK293 cells |  |  | EC50 | > 1500 µM
Cn1cc2c(C(=O)O)ccc(NS(=O)(=O)c3ccc(OCC4CCC4)c(Cl)c3)c2n1 | DRD1 (Homo sapiens, UniProt P21728) | agonist |  |  |  | EC50 | > 10 µM
Cc1cc(O)c2c(c1)C(=O)c1cccc(O)c1C2=O | HK-2 co-cultured with HepaRG | MTT |  | 33.33 µM, 48 h | reference: untreated control | viability | 65.8 ± 10.1%
CCOCc1nc(O)c(-c2nnc(Cc3ccc(Cl)cn3)o2)c(O)c1-c1c(OC)cccc1OC | Apelin receptor (APLNR, Homo sapiens, UniProt P35414) | Gαi1 activation, agonist, BRET biosensor | HEK293 |  |  | EC50 | 0.00012 ± 2e-05 µM
Cc1nn(-c2nc3c(F)cc(F)cc3s2)c(O)c1C(c1ccccc1C(F)(F)F)c1c(C)nn(-c2nc3c(F)cc(F)cc3s2)c1O | Cyclic GMP-AMP synthase, catalytic domain; with DNA (CGAS, Homo sapiens, UniProt Q8N884) | cGAS-DNA phase separation, inhibitor |  |  |  | EC50 | 3.19 µM
Cc1nn(CC(F)(F)F)cc1Nc1nccc(NCc2ccc(S(N)(=O)=O)cc2)n1 | 16-kinase panel | radiometric |  | 1 µM, ATP at Km | below 10% of control | number of kinases inhibited | 0
Nc1ncnc2c1ncn2[C@@H]1O[C@H](COP(=O)(O)OP(=O)(O)O[C@H]2O[C@H](CO)[C@@H](O)[C@H](O)[C@H]2O)[C@@H](O)[C@H]1O | P2Y purinoceptor 14 (P2RY14, Homo sapiens, UniProt Q15391, F191C) | calcium mobilisation, agonist | cells with Gαqi5 | receptor mutant F191C |  | EC50 | 0.42 ± 0.022 µM
CCc1nccnc1OC | uncharacterized protein | cAMP level, agonist, cAMP luminescence | HEK293 cells |  |  | EC50 | 214 ± 9.5 µM
Nc1nc2c(ncn2[C@@H]2O[C@@H]3COP(=O)(O)O[C@H]3[C@H]2O)c(=O)[nH]1 | Cone cGMP-gated channel (Morone saxatilis, UniProt Q3I0N1+Q3I0N2) | channel current, agonist, suction electrode | Morone saxatilis cone outer segments | together with: 5 µM Ca2+ |  | EC50 | 295 µM
COc1c(O[C@@H]2O[C@H](CO)[C@@H](O)[C@H](O)[C@H]2O)c(C)cc2c1C(=O)c1c(O)cccc1C2=O | HK-2 co-cultured with HepaRG | MTT |  | 133.33 µM, 24 h | reference: untreated control | cell viability | 59.1 ± 7.58%
NC1=NCC2c3ccccc3Cc3ccccc3N12 (stereo not shown) | HTR1E (Homo sapiens, UniProt P28566) | agonist |  |  |  | EC50 | 2.86 µM
Cc1nccnc1C | uncharacterized protein | cAMP level, agonist, cAMP luminescence | HEK293 cells |  |  | EC50 | > 1500 µM
CCCCC[C@H](O)/C=C/[C@H]1[C@H](O)CC(=O)[C@@H]1C/C=C\CCCC(=O)O | PTGER1 (Homo sapiens, UniProt P34995, F334L/G92S/P39S) | IP1 accumulation, agonist | AD293 |  |  | EC50 | 0.111 µM
O=C(COP(=O)(O)O)[C@@H](O)[C@H](O)[C@H](O)COP(=O)(O)O | Pyruvate kinase PKM (PKM, Homo sapiens, UniProt P14618) | pyruvate kinase activity, activator | A549 cell lysate | without AIM |  | EC50 | 0.0332 ± 0.0112 µM
CCC(C)c1nccnc1OC (stereo not shown) | uncharacterized protein | cAMP level, agonist, cAMP luminescence | HEK293 cells |  |  | EC50 | 159 ± 24.2 µM
CCCCC[C@H](O)/C=C/[C@H]1C(=O)C[C@H](O)[C@@H]1C/C=C\CCCC(=O)O | PTGDR (Homo sapiens, UniProt Q13258, D319N) | agonist |  |  |  | EC50 | 0.219 µM
Cc1cnc(C)cn1 | uncharacterized protein | cAMP level, agonist, cAMP luminescence | HEK293 cells |  |  | EC50 | > 1500 µM
CN1CCN2c3ccccc3Cc3ccccc3C2C1 (stereo not shown) | HTR1F (Homo sapiens, UniProt P30939) | agonist |  |  |  | EC50 | 0.851 µM
CCO[C@H](COc1ccc(C(F)(F)F)cc1)CSc1ccc(OCC(=O)O)c(C)c1 | Peroxisome proliferator-activated receptor alpha | receptor activation, agonist, luciferase reporter |  | serum-free, species rat |  | EC50 | 22 µM
O=C1Nc2c(ccc(Cl)c2Cl)C1=NO | KCNN4/CALM1 (Homo sapiens, UniProt O15554+P0DP23, N201A) | ion current, activator, whole-cell patch clamp |  | N201A mutant |  | EC50 | 0.085 µM
CCO[C@@H](Cc1ccc(OCCn2c(C)ccc2-c2ccc(SC)cc2)cc1)C(=O)O | Peroxisome proliferator-activated receptor alpha | receptor activation, agonist, luciferase reporter |  | serum-free, species rat |  | EC50 | 0.3 µM
C[C@@H](NC(=O)N1C(=O)[C@H](Cc2ccnc(N)c2)[C@H]1C(=O)O)C1CCCCC1 | F11 (Homo sapiens, UniProt P03951) | FXI coagulant activity, inhibitor, Emax PK/PD model | human, plasma |  | reference: baseline | EC50 | 3.47 µM

A few entries again:
Structure (SMILES) | tested on | assay | test system | setting | scale | measurement | value
Nc1ncnc2c1ncn2[C@@H]1O[C@H](COP(=O)(O)OP(=O)(O)O[C@H]2O[C@H](CO)[C@@H](O)[C@H](O)[C@H]2O)[C@@H](O)[C@H]1O | P2Y purinoceptor 14 (P2RY14, Homo sapiens, UniProt Q15391, F191C) | calcium mobilisation, agonist | cells with Gαqi5 | receptor mutant F191C |  | EC50 | 0.42 ± 0.022 µM
NC1=NCC2c3ccccc3Cc3ccccc3N12 (stereo not shown) | HTR1E (Homo sapiens, UniProt P28566) | agonist |  |  |  | EC50 | 2.86 µM
